Measurements of several laboratories.
Lines come from different studies, so protocols differ.
JAK2: Tyrosine-protein kinase JAK2 (JAK2, Homo sapiens, UniProt O60674)
Chain of UniProt O60674 (whole entry, unmodified, looked up): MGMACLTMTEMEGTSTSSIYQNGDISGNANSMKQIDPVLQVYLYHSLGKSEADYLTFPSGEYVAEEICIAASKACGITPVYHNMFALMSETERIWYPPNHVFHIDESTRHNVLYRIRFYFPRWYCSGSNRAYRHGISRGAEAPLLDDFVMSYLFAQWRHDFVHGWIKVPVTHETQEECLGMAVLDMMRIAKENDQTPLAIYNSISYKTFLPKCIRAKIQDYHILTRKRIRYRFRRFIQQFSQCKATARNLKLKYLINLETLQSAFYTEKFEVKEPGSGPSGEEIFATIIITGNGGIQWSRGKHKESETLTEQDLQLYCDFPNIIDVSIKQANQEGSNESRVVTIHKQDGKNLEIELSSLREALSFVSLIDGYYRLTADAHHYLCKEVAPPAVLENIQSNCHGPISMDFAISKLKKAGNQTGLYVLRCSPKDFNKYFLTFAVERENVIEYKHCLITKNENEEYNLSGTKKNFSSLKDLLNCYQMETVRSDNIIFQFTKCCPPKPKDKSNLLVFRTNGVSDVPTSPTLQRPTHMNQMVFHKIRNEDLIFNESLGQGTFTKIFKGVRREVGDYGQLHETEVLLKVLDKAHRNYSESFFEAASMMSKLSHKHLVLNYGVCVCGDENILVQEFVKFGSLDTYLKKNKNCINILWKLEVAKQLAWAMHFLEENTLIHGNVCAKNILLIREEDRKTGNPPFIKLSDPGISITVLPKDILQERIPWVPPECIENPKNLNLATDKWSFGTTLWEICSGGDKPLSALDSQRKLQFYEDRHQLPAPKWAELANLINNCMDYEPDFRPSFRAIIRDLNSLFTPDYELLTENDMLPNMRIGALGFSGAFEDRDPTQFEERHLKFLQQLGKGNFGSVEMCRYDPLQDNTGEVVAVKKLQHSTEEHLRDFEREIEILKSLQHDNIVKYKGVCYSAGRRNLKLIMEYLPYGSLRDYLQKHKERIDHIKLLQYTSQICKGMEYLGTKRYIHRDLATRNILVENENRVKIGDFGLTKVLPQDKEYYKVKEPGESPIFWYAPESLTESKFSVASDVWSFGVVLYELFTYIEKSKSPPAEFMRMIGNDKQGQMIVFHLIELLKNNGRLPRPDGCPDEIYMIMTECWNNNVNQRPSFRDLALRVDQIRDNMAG
JAK2 V617F: Tyrosine-protein kinase JAK2 (JAK2, Homo sapiens, UniProt O60674, V617F)

SMILES	target	assay	system	setting	scale	quantity	value
C[C@@H](c1ccc(-n2cnc3c(N)ncnc32)cc1)N1CCc2nn(C)c(Cc3ccccc3)c2C1=O	JAK2	KINOMEscan		0.1 µM	relative to: DMSO control	remaining binding	65%
C1=C/COCc2cc(ccc2OCCN2CCCC2)Nc2nccc(n2)-c2cccc(c2)COC/1	JAK2	kinase binding panel		concentration not given		remaining binding	6.8%
COc1cc(F)ccc1-c1ncnc(Nc2cccc(C[S@](C)(=N)=O)c2)n1	JAK2	kinase activity		10 µM, together with: 10 µM ATP		remaining activity	89%
Cc1cc(Nc2cc(N3CCN(C)CC3)nc(Sc3ccc(NC(=O)C4CC4)cc3)n2)[nH]n1	JAK2	kinase activity, KinaseProfiler		0.03 µM, species human	relative to: control	remaining activity	109%
COc1cc(N2CCN(C)CC2)ccc1Nc1nc(N)n(C(=O)NCc2ccccc2S(=O)(=O)C(C)C)n1	JAK2	enzyme activity		10 µM	relative to: control	remaining activity	32%
CC(=O)Nc1cc(Oc2ccc3c(nc(Nc4ccc(F)cc4F)n3C)c2C)ccn1	JAK2 V617F	kinase activity, KiNativ chemical proteomics	SET-2	5 µM, 4 h		inhibition	85.9%
O=C1NC(=O)/C(=C/c2ccc(-c3ccc(F)cc3O)o2)S1	JAK2	enzyme activity		10 µM		remaining activity	60%
COc1cc(N2CCN(C)CC2)ccc1Nc1nc(N)n(C(=S)NCc2c(Cl)cccc2Cl)n1	JAK2	enzyme activity		10 µM	relative to: control	remaining activity	0.4%
C=CC(=O)N1CCC(COCC(=O)N2CCN(c3nc(-c4cnc(N)nc4C(F)F)nc(N4CCOC[C@@H]4C)n3)CC2)CC1	JAK2	KINOMEscan		1 µM	relative to: DMSO control	remaining binding	90%
O=C(NC1CCC1)c1ccc2nc(-c3cccc(NS(=O)(=O)NCCN4CCCCC4)c3)cn2c1	JAK2	enzyme activity		10 µM		remaining activity	98%
CCN(CC)c1ccc(C2=NNC(=O)CC2C)cc1[N+](=O)[O-] (stereo not shown)	JAK2	enzyme activity, inhibitor		10 µM	relative to: vehicle	remaining activity	106%
Cc1[nH]c(/C=C2\C(=O)Nc3ccc(F)cc32)c(C)c1C(=O)N[C@H]1CCN(C(=O)N(C)C)C1	JAK2	kinase activity, inhibitor		1 µM	relative to: no-compound control	remaining activity	97%
CCCOc1ccc(OC)c(F)c1C(=O)c1ccc(C(=O)N[C@@H]2CNC[C@H]2NC(=O)c2ccc3[nH]ncc3c2)cc1	JAK2	enzyme activity		10 µM		remaining activity	88%
CCN1CCN(Cc2ccc(NC(=O)c3ccc(C)c(-c4ccc5nc(NC(=O)C6CC6)cn5c4)c3)cc2C(F)(F)F)CC1	JAK2 V617F	kinase activity, inhibitor, KiNativ profiling	SET-2	5 µM		inhibition	93.9%
[2H]c1cc(C)c(NC(=O)c2cnc(Nc3cc(N4CCCCC4)nc(C)n3)s2)c(Cl)c1	JAK2			0.01 µM		inhibition	< 30%
C=CC(=O)N1CCC(C(=O)NCC(=O)N2CCN(c3nc(-c4cnc(N)nc4C(F)F)nc(N4CCOCC4)n3)CC2)CC1	JAK2	KINOMEscan		1 µM		remaining binding	88%

Some of these lines once more:
SMILES	target	assay	system	setting	scale	quantity	value
CCCOc1ccc(OC)c(F)c1C(=O)c1ccc(C(=O)N[C@@H]2CNC[C@H]2NC(=O)c2ccc3[nH]ncc3c2)cc1	JAK2	enzyme activity		10 µM		remaining activity	88%
CCN1CCN(Cc2ccc(NC(=O)c3ccc(C)c(-c4ccc5nc(NC(=O)C6CC6)cn5c4)c3)cc2C(F)(F)F)CC1	JAK2 V617F	kinase activity, inhibitor, KiNativ profiling	SET-2	5 µM		inhibition	93.9%
